Published values pooled from the literature.
Every numbered part comes from another study and shows a few of its results, in no order. Changes are numbered by the printed parent chain.

Set 1
Target: UDP-N-acetylglucosamine--peptide N-acetylglucosaminyltransferase 110 kDa subunit (OGT, Homo sapiens, UniProt O15294)
Chain of UniProt O15294 (whole entry, looked up): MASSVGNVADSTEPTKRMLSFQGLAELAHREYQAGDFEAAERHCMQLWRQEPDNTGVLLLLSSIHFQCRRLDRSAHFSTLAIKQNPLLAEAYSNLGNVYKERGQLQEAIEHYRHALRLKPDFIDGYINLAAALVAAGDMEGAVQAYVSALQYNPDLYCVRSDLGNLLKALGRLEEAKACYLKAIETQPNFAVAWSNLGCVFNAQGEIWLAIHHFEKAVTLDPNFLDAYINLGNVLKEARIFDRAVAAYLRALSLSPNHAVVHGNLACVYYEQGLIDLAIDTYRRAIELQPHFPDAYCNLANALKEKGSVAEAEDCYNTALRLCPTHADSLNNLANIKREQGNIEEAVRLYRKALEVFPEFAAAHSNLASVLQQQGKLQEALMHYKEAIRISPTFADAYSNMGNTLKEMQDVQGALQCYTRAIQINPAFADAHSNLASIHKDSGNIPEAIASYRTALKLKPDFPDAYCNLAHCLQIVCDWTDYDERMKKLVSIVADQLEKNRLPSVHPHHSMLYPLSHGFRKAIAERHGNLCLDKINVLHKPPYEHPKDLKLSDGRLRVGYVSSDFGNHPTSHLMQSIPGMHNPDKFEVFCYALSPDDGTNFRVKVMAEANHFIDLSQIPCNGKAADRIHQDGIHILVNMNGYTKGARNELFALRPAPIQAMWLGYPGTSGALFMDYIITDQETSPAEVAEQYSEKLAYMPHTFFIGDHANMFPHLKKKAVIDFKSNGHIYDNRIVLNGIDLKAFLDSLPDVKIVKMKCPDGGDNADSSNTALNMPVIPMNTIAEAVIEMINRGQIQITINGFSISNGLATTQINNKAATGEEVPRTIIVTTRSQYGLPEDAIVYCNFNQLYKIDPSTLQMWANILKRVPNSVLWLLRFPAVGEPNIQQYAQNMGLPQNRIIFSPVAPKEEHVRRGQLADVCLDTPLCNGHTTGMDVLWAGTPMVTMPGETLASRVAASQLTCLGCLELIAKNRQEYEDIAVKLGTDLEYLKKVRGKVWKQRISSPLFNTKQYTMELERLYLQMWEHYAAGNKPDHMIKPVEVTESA
Read-out: binding
Technique: phage display NGS
Molecule type: peptide
Tested at: concentration not given
Relative to: input library
| Molecule | enrichment fold change |
| --- | --- |
| YYHTPRHDQMHVYVR | 5.65 |
| RPLEQSHHHIFFSKR | 2.04 |
| HQQQHHEVSGHHLVR | 4.34 |
| DYIYGHSHPHIMNHN | 9.58 |
| VLWPPYTYHHNHHRI | 56.2 |

Set 2
Target: CCNB3, cyclin fold, Cln2 fusion (human)
Technique: yeast growth competition, sequencing
Matrix: yeast
Notes: strong parent motif
Relative to: not given
Reading: higher = stronger binding
Starting sequence: viral docking peptide; TSVRRALFTGGSD; partner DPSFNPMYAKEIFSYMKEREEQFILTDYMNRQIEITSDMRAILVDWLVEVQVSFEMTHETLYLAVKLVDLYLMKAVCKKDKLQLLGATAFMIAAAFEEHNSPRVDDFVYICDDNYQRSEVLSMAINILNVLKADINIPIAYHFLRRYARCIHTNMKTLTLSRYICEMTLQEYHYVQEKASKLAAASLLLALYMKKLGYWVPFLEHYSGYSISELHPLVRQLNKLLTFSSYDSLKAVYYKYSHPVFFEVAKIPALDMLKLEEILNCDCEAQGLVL
| Substitution | normalised enrichment score |
| --- | --- |
| TSVRRALFTQGSD [G10Q] | 1.91 |
| TSVREALFTGGSD [R5E] | 0.0694 |
| TSVRRALFTGHSD [G11H] | 1.66 |
| TSVRRALFTFGSD [G10F] | 1.61 |
| THVRRALFTGGSD [S2H] | 2.06 |
| TSVRRALFTGGCD [S12C] | 2.08 |
| TSCRRALFTGGSD [V3C] | 1.68 |
| TSVRRAMFTGGSD [L7M] | 0.314 |
| TSVRRALFTCGSD [G10C] | 1.97 |
| TSVRRALFTGGVD [S12V] | 1.97 |
| TSVRRSLFTGGSD [A6S] | 5.21 |
| TSVRRALFTGGTD [S12T] | 1.76 |
| TSKRRALFTGGSD [V3K] | 0.325 |
| TSVRRALFTGGRD [S12R] | 1.7 |

Set 3
Target: Phosphate system positive regulatory protein PHO4, full length, GST-tagged (PHO4, Saccharomyces cerevisiae, UniProt P07270, residues 1-312)
Technique: competition protein-binding microarray
Molecule type: double-stranded DNA, one strand shown
Matrix: in vitro
Tested at: 2 µM
Notes: whole 60-bp probe, lowest competitor level
Added: Cbf1 competitor, 0.05 µM
Reading: higher = stronger binding
All sequences stand within: … GTCTTGATTCGCTTGACGCTGCTG
Target sequence (chain): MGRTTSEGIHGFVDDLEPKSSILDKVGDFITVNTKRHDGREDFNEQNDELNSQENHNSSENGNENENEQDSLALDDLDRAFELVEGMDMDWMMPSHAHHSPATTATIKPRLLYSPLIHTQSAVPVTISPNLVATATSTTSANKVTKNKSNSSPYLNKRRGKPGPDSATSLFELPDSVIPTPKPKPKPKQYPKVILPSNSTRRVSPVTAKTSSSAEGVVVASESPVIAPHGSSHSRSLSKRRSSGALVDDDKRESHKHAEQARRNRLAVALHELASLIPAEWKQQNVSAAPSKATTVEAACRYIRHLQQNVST
| Strand | fluorescence intensity [a.u.] |
| --- | --- |
| CTTTCCCGATCTTGCATTGTGGGTGTAGCACATTTG | 6030 |
| CCTGGTAGGTTTGATCTCTTGAGAGTTTGAGCTTTC | 2400 |
| TACGTTGGGCGACCAAACGTGGCTGGTTGCCTGTAA | 10100 |
| AGCTCCTGCACTTTGCACGTGGCCGAGCCATCGCCC | 18100 |
| GCATTATACCTAAAGCACGCAGAGAAACCTCTCTTT | 7580 |
| GTCTTGTCTCATTTTCACGTGATGTTCCCCACTTCA | 9640 |
| CAACATGCCAAATCGCACGTGACTCGAAACTATGGA | 15900 |
| CGTCTCCCGCAAAGCCACGCGCCAGCTGACTGGCTC | 9330 |

Set 4
Target: inorganic phosphate, free oxyanion
Technique: microfluidic competitive inhibition
Matrix: in vitro, cell-free expressed
Tested at: not given
Notes: derived from inhibition constants, unchanged parent 615000 nM
Reading: lower = stronger binding
Starting sequence: PafA, mature enzyme, eGFP fusion (Elizabethkingia meningoseptica, UniProt Q9KJX5); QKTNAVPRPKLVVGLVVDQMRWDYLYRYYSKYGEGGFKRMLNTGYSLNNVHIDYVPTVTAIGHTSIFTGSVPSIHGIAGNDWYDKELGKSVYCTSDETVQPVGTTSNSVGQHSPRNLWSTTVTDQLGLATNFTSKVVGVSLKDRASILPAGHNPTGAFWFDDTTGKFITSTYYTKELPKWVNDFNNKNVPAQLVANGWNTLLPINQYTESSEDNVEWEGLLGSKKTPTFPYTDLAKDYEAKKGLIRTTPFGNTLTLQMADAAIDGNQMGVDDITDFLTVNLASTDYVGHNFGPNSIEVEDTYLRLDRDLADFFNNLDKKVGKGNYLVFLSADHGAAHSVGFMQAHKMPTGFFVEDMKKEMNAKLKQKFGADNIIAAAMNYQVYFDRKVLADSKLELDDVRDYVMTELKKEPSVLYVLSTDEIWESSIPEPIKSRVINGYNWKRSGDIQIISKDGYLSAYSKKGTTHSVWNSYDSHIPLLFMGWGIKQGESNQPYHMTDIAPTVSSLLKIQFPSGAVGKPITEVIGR
| Substitution | phosphate dissociation constant [µM] |
| --- | --- |
| N379V | 573 |
| Q1V | 655 |
| K85V | 620 |

For quick reference, copied from above (set 3):
| Strand | fluorescence intensity [a.u.] |
| --- | --- |
| GTCTTGTCTCATTTTCACGTGATGTTCCCCACTTCA | 9640 |
| GCATTATACCTAAAGCACGCAGAGAAACCTCTCTTT | 7580 |
